Results of several laboratories.
Compare with care: the assays were run in different laboratories. ± gives the spread as reported.
Tumor necrosis factor receptor superfamily member 9/Nectin-4: Tumor necrosis factor receptor superfamily member 9/Nectin-4 (Homo sapiens, UniProt Q07011+Q96NY8)
Chain of UniProt Q96NY8 (whole entry, looked up): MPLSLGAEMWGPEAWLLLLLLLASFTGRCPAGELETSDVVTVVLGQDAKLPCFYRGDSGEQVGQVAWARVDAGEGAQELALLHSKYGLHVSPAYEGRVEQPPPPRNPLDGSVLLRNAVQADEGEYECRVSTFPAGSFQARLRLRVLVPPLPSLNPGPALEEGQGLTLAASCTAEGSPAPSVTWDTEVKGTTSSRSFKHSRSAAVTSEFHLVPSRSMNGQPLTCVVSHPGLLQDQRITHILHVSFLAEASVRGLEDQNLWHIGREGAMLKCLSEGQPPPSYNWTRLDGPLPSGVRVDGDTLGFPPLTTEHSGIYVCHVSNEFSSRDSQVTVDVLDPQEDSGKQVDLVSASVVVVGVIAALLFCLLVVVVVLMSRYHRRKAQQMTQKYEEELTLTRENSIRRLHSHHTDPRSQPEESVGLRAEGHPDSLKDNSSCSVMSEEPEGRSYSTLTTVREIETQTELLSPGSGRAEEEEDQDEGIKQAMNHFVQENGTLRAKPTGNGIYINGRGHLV
Chain of UniProt Q07011 (whole entry, looked up): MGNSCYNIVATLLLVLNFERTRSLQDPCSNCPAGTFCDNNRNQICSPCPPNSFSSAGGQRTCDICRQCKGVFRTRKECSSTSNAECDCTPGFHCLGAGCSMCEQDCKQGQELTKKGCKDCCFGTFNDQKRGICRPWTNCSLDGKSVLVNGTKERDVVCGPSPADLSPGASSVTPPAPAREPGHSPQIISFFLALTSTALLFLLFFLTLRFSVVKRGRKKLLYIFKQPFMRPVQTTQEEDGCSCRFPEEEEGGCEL
SLCO1B3: Solute carrier organic anion transporter family member 1B3 (SLCO1B3, Homo sapiens, UniProt Q9NPD5)
Chain of UniProt Q9NPD5 (whole entry, looked up): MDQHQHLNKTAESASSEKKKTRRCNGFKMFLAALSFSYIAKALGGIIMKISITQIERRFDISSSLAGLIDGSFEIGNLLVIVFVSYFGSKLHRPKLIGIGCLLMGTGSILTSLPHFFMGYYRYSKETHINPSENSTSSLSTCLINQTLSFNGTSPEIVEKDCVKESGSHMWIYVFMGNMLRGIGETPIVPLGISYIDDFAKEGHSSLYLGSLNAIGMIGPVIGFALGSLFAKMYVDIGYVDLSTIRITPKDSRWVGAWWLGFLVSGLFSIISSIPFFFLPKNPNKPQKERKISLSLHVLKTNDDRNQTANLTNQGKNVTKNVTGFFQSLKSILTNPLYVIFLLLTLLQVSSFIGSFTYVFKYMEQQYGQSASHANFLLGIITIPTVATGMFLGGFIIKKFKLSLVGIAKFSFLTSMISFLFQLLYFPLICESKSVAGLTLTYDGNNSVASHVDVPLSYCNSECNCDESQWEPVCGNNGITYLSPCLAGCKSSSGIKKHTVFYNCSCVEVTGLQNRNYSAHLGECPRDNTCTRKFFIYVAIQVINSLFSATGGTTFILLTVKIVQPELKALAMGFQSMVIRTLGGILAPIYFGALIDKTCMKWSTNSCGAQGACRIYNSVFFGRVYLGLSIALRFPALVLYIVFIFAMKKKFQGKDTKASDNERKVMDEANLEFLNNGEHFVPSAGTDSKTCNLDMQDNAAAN
ABCG2: Broad substrate specificity ATP-binding cassette transporter ABCG2 (ABCG2, Homo sapiens, UniProt Q9UNQ0)
Chain of UniProt Q9UNQ0 (whole entry, looked up): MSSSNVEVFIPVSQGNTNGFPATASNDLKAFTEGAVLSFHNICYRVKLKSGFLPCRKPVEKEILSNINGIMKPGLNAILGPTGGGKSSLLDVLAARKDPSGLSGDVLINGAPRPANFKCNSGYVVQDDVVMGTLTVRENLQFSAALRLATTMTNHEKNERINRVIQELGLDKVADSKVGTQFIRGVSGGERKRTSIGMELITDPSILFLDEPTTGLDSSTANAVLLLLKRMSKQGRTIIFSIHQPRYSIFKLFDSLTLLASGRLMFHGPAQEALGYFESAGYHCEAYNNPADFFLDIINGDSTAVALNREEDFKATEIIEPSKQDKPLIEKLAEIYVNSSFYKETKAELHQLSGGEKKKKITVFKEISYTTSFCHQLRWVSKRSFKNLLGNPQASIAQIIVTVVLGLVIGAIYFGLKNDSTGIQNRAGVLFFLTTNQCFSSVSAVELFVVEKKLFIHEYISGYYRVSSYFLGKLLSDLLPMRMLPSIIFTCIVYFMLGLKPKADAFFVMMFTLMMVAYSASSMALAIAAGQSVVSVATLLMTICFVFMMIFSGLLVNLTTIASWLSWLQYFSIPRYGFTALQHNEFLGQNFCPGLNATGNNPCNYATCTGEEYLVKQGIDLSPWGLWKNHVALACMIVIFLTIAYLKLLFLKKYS
Chain of UniProt Q86VL8 (whole entry, looked up): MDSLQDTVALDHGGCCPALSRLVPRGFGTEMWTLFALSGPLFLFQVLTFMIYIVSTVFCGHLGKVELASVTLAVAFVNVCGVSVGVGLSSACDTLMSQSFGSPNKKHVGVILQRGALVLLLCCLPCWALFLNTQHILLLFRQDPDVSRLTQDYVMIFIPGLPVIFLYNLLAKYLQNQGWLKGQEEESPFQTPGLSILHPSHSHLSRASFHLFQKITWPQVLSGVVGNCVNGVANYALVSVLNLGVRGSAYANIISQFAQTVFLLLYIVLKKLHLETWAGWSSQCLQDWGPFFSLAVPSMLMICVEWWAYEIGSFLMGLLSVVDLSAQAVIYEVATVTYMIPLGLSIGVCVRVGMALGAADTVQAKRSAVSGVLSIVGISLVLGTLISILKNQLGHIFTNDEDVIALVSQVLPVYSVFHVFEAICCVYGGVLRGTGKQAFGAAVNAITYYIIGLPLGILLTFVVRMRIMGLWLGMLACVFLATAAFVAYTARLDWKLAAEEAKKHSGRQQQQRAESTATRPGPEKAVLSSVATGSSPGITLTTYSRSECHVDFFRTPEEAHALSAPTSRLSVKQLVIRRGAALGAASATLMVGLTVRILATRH
Chain of UniProt P50613 (whole entry, looked up): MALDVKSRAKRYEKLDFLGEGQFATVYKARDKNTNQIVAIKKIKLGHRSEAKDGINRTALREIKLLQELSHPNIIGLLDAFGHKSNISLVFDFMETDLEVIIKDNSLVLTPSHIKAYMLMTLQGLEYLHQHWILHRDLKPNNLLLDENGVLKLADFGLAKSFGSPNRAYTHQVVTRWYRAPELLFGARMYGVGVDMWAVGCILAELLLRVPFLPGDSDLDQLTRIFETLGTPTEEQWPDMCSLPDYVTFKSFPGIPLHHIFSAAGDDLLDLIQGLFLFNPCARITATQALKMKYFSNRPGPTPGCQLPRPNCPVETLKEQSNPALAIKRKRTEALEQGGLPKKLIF
Chain of UniProt Q05421 (whole entry, looked up): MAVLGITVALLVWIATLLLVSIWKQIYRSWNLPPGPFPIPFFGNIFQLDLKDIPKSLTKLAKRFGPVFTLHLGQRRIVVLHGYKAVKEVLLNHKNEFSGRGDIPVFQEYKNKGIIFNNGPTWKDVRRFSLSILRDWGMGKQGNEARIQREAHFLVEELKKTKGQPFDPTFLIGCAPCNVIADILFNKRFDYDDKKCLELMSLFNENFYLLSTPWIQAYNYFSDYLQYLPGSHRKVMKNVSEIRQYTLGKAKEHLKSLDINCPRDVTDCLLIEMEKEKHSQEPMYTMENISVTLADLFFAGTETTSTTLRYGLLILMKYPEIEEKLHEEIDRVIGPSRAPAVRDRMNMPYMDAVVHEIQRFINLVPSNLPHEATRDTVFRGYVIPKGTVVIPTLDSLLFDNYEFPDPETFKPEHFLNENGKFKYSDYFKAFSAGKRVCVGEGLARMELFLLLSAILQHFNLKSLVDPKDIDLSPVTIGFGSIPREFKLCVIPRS

| SMILES | tested on | test | system | conditions | scale | endpoint | value |
| --- | --- | --- | --- | --- | --- | --- | --- |
| CCCC[C@@H]1NC(=O)[C@H](Cc2ccc(O)cc2)NC(=O)[C@@H]2CCCN2C(=O)[C@H](CC(=O)O)NC(=O)[C@H](C)NC(=O)[C@H](Cc2ccccc2)NC(=O)[C@@H]2CSCCC(=O)N3CN(CN(C3)C(=O)CCSC[C@@H](C(=O)N[C@@H](C)C(N)=O)NC1=O)C(=O)CCSC[C@H](NC(=O)[C@H](C)NC(C)=O)C(=O)N[C@@H]([C@@H](C)CC)C(=O)N[C@@H](CCC(=O)O)C(=O)N[C@@H](CCC(=O)O)C(=O)N[C@H](CCCCNC(=O)CCc1cn(CCOCCOCCOCCOCCOCCC(=O)N[C@H]3CSCCC(=O)N4CN5CN(C4)C(=O)CCSC[C@H](NC(=O)[C@@H](CC(=O)O)NC(=O)[C@H](Cc4cccc6ccccc46)NC(=O)[C@@H]4CCCN4C3=O)C(=O)N[C@@H](CCSC)C(=O)N[C@@H](CCCCNC(=N)N)C(=O)N[C@@H](CC(=O)O)C(=O)N[C@@H](Cc3c[nH]c4ccccc34)C(=O)N[C@@H](CO)C(=O)N[C@@H]([C@@H](C)O)C(=O)N3CCC[C@H]3C(=O)N3C[C@H](O)C[C@H]3C(=O)N[C@@H](Cc3c[nH]c4ccccc34)C(=O)N[C@H](C(N)=O)CSCCC5=O)nn1)C(=O)N[C@@H](CCC(N)=O)C(=O)N[C@@H](Cc1ccc(O)cc1)C(=O)N2 | Tumor necrosis factor receptor superfamily member 9/Nectin-4 | reporter gene, agonist, luciferase reporter | CD137 Jurkat reporter with HT-1376 | 6 h, geometric mean | baseline: wells without compound | Emax | 28 fold |
| CCCCCCCCc1ccc(CCC(N)(CO)CO)cc1 | SLCO1B3 | transport, inhibitor | transiently transfected cells | 100 µM, 10 (unit not given), added: CCK-8 |  | inhibition | 59.3% |
| CC1(C)[C@H](C(=O)O[C@H](C#N)c2cccc(Oc3ccccc3)c2)[C@@H]1C=C(Br)Br | ABCG2 | inhibition, inhibitor |  | 0.03 to 100 µM, added: sulfasalazine 10 µM |  | BCRP ATPase activity | no inhibition |
| CCCC[C@@H]1NC(=O)[C@H](Cc2ccc(O)cc2)NC(=O)[C@@H]2CCCN2C(=O)[C@H](CC(=O)O)NC(=O)[C@H](C)NC(=O)[C@H](Cc2ccccc2)NC(=O)[C@@H]2CSCCC(=O)N3CN(CN(C3)C(=O)CCSCCC(=O)N[C@@H](CC(C)(C)C)C(=O)N3CCC[C@H]3C(=O)N[C@@H](CCC(=O)O)C(=O)N[C@H](CCCCNC(=O)CCc3cn(CCOCCOCCOCCN(CCOCCOCCOCCC(=O)N[C@H]4CSCCC(=O)N5CN6CN(C5)C(=O)CCSC[C@H](NC(=O)[C@@H](CC(=O)O)NC(=O)[C@H](Cc5cccc7ccccc57)NC(=O)[C@@H]5CCCN5C4=O)C(=O)N[C@@H](CCSC)C(=O)N[C@@H](CCCCNC(=N)N)C(=O)N[C@@H](CC(=O)O)C(=O)N[C@@H](Cc4c[nH]c5ccccc45)C(=O)N[C@@H](CO)C(=O)N[C@@H]([C@@H](C)O)C(=O)N4CCC[C@H]4C(=O)N4C[C@H](O)C[C@H]4C(=O)N[C@@H](Cc4c[nH]c5ccccc45)C(=O)N[C@H](C(N)=O)CSCCC6=O)CCOCCOCCOCCn4cc(CCC(=O)NCCCC[C@H]5NC(=O)[C@H](CCC(=O)O)NC(=O)[C@@H]6CCCN6C(=O)[C@H](CC(C)(C)C)NC(=O)CCSCCC(=O)N6CN7CN(C6)C(=O)CCSC[C@H](NC(=O)[C@H](Cc6ccc(O)cc6)NC(=O)[C@@H]6CCCN6C5=O)C(=O)N[C@@H](Cc5ccccc5)C(=O)N[C@@H](C)C(=O)N[C@@H](CC(=O)O)C(=O)N5CCC[C@H]5C(=O)N[C@@H](Cc5ccc(O)cc5)C(=O)N[C@@H](CCCC)C(=O)NCCSCCC7=O)nn4)nn3)C(=O)N3CCC[C@H]3C(=O)N[C@@H](Cc3ccc(O)cc3)C(=O)N2)C(=O)CCSCCNC1=O | Tumor necrosis factor receptor superfamily member 9/Nectin-4 | reporter gene, agonist, luciferase reporter | CD137 Jurkat reporter with HT-1376 | 6 h, geometric mean | baseline: wells without compound | Emax | 71 fold |
| CN(C)C(=O)COC(=O)Cc1ccc(OC(=O)c2ccc(NC(=N)N)cc2)cc1 | ABCG2 | transport, inhibitor |  | 100 µM, 5 (unit not given), pH 7, added: CCK-8 |  | inhibition | 29.6% |
| Oc1ccccc1-c1nc(-c2cccs2)c(-c2cccs2)[nH]1 | Vero-E6 | CellTiter-Glo ATP |  | 72 h, first round 5-point | baseline: DMSO 0%, hyamine -100%, more negative, more toxic | maximum response | -16.9% |
| C[C@H]1CN(c2n[nH]c3nc(N[C@H]4CC[C@H](NS(=O)(=O)CCC(F)(F)F)CC4)ncc23)CCO1 | CDK7 (Homo sapiens, UniProt P50613) | competitor, Kinobeads competition | HEK293, K562, placenta extract |  |  | Hill slope | 1.11 |
| CCCC[C@@H]1NC(=O)[C@H](Cc2ccc(O)cc2)NC(=O)[C@@H]2CCCN2C(=O)[C@H](CC(=O)O)NC(=O)[C@H](C)NC(=O)[C@H](Cc2ccccc2)NC(=O)[C@@H]2CSCCC(=O)N3CN(CN(C3)C(=O)CCSCCC(=O)N[C@@H](CC(C)(C)C)C(=O)N3CCC[C@H]3C(=O)N[C@@H](CCC(=O)O)C(=O)N[C@H](CCCCNC(=O)CCc3cn(CCOCCOCCOCCOCCOCCC(=O)N[C@H]4CSCCC(=O)N5CN6CN(C5)C(=O)CCSC[C@H](NC(=O)[C@@H](CC(=O)O)NC(=O)[C@H](Cc5cccc7ccccc57)NC(=O)[C@@H]5CCCN5C4=O)C(=O)N[C@@H](CCSC)C(=O)N[C@@H](CCCCNC(=N)N)C(=O)N[C@@H](CC(=O)O)C(=O)N[C@@H](Cc4c[nH]c5ccccc45)C(=O)N[C@@H](CO)C(=O)N[C@@H]([C@@H](C)O)C(=O)N4CCC[C@H]4C(=O)N4C[C@H](O)C[C@H]4C(=O)N[C@@H](Cc4c[nH]c5ccccc45)C(=O)N[C@H](C(N)=O)CSCCC6=O)nn3)C(=O)N3CCC[C@H]3C(=O)N[C@@H](Cc3ccc(O)cc3)C(=O)N2)C(=O)CCSCCNC1=O | Tumor necrosis factor receptor superfamily member 9/Nectin-4 | reporter gene, agonist, luciferase reporter | CD137 Jurkat reporter with HT-1376 | 6 h, geometric mean | baseline: wells without compound | Emax | 34 fold |
| CCCc1nn(C)c2c(=O)[nH]c(-c3cc(S(=O)(=O)N4CCN(C)CC4)ccc3OCC)nc12 | ABCG2 | transport, inhibitor |  | 100 µM, 5 (unit not given), pH 7, added: CCK-8 |  | inhibition | 58.7% |
| O=c1ccc2ncc(=O)n3c2n1C[C@H]3CN1CCC(NCc2cc3c(cn2)OCCC3)CC1 | ABCG2 | substrate | transporter-overexpressing cell monolayers |  |  | efflux ratio | 11 to 15 |
| COc1ccc2cc1Oc1ccc(cc1)C[C@H]1c3cc(c(OC)cc3CCN1C)Oc1c(OC)c(OC)cc3c1[C@H](C2)N(C)CC3 | SLCO1B3 | transport, inhibitor |  | 10 µM, added: CCK |  | inhibition | 24.6% |
| COc1ccc(N2CCN(CCCNC(=O)c3cc(Nc4ccc(OC)cc4OC)nc4ccccc34)CC2)cc1 | Vero-E6 | CellTiter-Glo ATP |  | 72 h, retest 8-point duplicates | baseline: DMSO 0%, hyamine -100%, more negative, more toxic | maximum response | -22.5% |
| CCOC(=O)C1=C[C@@H](OC(CC)CC)[C@H](NC(C)=O)[C@@H](N)C1 | SLC47A2 (Homo sapiens, UniProt Q86VL8) | transport, inhibitor | transiently transfected cells | 100 µM, 10 (unit not given), added: thiamine |  | inhibition | 24.5% |
| Nc1ccc([O-])c(=O)cc1.Nc1ccc([O-])c(=O)cc1.Nc1ccc([O-])c(=O)cc1.[Bi+3] | Bi(III) | electronic spectroscopy |  |  |  | log Ka | 18 ± 0.39 |
| O=C(O)C(F)(F)C(F)(F)C(F)(F)C(F)(F)C(F)(F)C(F)(F)C(F)(F)F | SLCO1B3 | substrate | CHO stably expressing | 10 µM |  | linear uptake duration | 1 min |
| CC1(C)C(C=C(Cl)Cl)C1C(=O)OC(C#N)c1ccc(F)c(Oc2ccccc2)c1 (stereo not shown) | CES2 human cytosolic |  |  | 0.1 µM, age 1 year |  | enzyme contribution | 0.32% |
| CCCC[C@@H]1NC(=O)[C@H](Cc2ccc(O)cc2)NC(=O)[C@H](C)N(C)C(=O)[C@H](CC(=O)O)NC(=O)[C@H](C)NC(=O)[C@H](Cc2ccccc2)NC(=O)[C@@H]2CSCCC(=O)N3CN(CN(C3)C(=O)CCSC[C@H](NC(C)=O)C(=O)N[C@@H](CC(C)(C)C)C(=O)N3CCC[C@H]3C(=O)N[C@@H](CCC(=O)O)C(=O)N[C@H](CCCCNC(=O)CCc3cn(CCOCCOCCOCCOCCOCCC(=O)N[C@H]4CSCCC(=O)N5CN6CN(C5)C(=O)CCSC[C@H](NC(=O)[C@@H](CC(=O)O)NC(=O)[C@H](Cc5cccc7ccccc57)NC(=O)[C@@H]5CCCN5C4=O)C(=O)N[C@@H](CCSC)C(=O)N[C@@H](CCCCNC(=N)N)C(=O)N[C@@H](CC(=O)O)C(=O)N[C@@H](Cc4c[nH]c5ccccc45)C(=O)N[C@@H](CO)C(=O)N[C@@H]([C@@H](C)O)C(=O)N4CCC[C@H]4C(=O)N4C[C@H](O)C[C@H]4C(=O)N[C@@H](Cc4c[nH]c5ccccc45)C(=O)N[C@H](C(N)=O)CSCCC6=O)nn3)C(=O)N3CCC[C@H]3C(=O)N[C@@H](Cc3ccc(O)cc3)C(=O)N2)C(=O)CCSC[C@@H](C(N)=O)NC1=O | Tumor necrosis factor receptor superfamily member 9/Nectin-4 | reporter gene, agonist, luciferase reporter | CD137 Jurkat reporter with HT-1376 | 6 h, geometric mean | baseline: wells without compound | Emax | 31 fold |
| NC(=O)c1ncn([C@@H]2O[C@H](CO)[C@@H](O)[C@H]2O)n1 | ABCG2 | transport, inhibitor |  | 100 µM, 5 (unit not given), pH 7, added: CCK-8 |  | inhibition | 12.9% |
| CC1(C)[C@H](C(=O)O[C@H](C#N)c2cccc(Oc3ccccc3)c2)[C@@H]1C=C(Br)Br | human CYP1A2 | IVIVE from expressed enzymes | human, liver, in vivo scaled | 0.1 µM, age-specific |  | enzyme contribution to CLint | 0.4% |
| C=CC(O)CO (stereo not shown) | Cytochrome P450 2E1 (Cyp2e1, Mus musculus, UniProt Q05421) | 4-nitrophenol hydroxylation, inhibitor | B6C3F1 mouse, liver microsomes | 25 mM, 30 min, added: 4-nitrophenol 50 µM |  | remaining activity | 15% |
| CCCC[C@@H]1NC(=O)[C@H](Cc2ccc(O)cc2)NC(=O)[C@@H]2CCCN2C(=O)[C@H](CC(=O)O)NC(=O)[C@H](C)NC(=O)[C@H](Cc2ccccc2)NC(=O)[C@@H]2CSCCC(=O)N3CN(CN(C3)C(=O)CCSC[C@@H](C(N)=O)NC1=O)C(=O)CCSCCC(=O)N[C@@H](CC(C)(C)C)C(=O)N1CCC[C@H]1C(=O)N[C@@H](CCC(=O)O)C(=O)N[C@H](CCCCNC(=O)CCc1cn(CCOCCOCCOCCOCCOCCC(=O)N[C@H]3CSCCC(=O)N4CN5CN(C4)C(=O)CCSC[C@H](NC(=O)[C@@H](CC(=O)O)NC(=O)[C@H](Cc4cccc6ccccc46)NC(=O)[C@@H]4CCCN4C3=O)C(=O)N[C@@H](CCSC)C(=O)N[C@@H](CCCCNC(=N)N)C(=O)N[C@@H](CC(=O)O)C(=O)N[C@@H](Cc3c[nH]c4ccccc34)C(=O)N[C@@H](CO)C(=O)N[C@@H]([C@@H](C)O)C(=O)N3CCC[C@H]3C(=O)N3C[C@H](O)C[C@H]3C(=O)N[C@@H](Cc3c[nH]c4ccccc34)C(=O)N[C@H](C(N)=O)CSCCC5=O)nn1)C(=O)N1CCC[C@H]1C(=O)N[C@@H](Cc1ccc(O)cc1)C(=O)N2 | Tumor necrosis factor receptor superfamily member 9/Nectin-4 | reporter gene, agonist, luciferase reporter | CD137 Jurkat reporter with HT-1376 | 6 h, geometric mean | baseline: wells without compound | Emax | 39 fold |
| CC1(C)[C@H](C=C(Cl)Cl)[C@H]1C(=O)OCc1cccc(Oc2ccccc2)c1 | human CYP2C8 | IVIVE from expressed enzymes | human, liver, in vivo scaled | 0.1 µM, age-specific |  | enzyme contribution to CLint | 0.04% |

Excerpt of the above:
| SMILES | tested on | test | system | conditions | scale | endpoint | value |
| --- | --- | --- | --- | --- | --- | --- | --- |
| CC1(C)C(C=C(Cl)Cl)C1C(=O)OC(C#N)c1ccc(F)c(Oc2ccccc2)c1 (stereo not shown) | CES2 human cytosolic |  |  | 0.1 µM, age 1 year |  | enzyme contribution | 0.32% |
| CCCC[C@@H]1NC(=O)[C@H](Cc2ccc(O)cc2)NC(=O)[C@@H]2CCCN2C(=O)[C@H](CC(=O)O)NC(=O)[C@H](C)NC(=O)[C@H](Cc2ccccc2)NC(=O)[C@@H]2CSCCC(=O)N3CN(CN(C3)C(=O)CCSCCC(=O)N[C@@H](CC(C)(C)C)C(=O)N3CCC[C@H]3C(=O)N[C@@H](CCC(=O)O)C(=O)N[C@H](CCCCNC(=O)CCc3cn(CCOCCOCCOCCOCCOCCC(=O)N[C@H]4CSCCC(=O)N5CN6CN(C5)C(=O)CCSC[C@H](NC(=O)[C@@H](CC(=O)O)NC(=O)[C@H](Cc5cccc7ccccc57)NC(=O)[C@@H]5CCCN5C4=O)C(=O)N[C@@H](CCSC)C(=O)N[C@@H](CCCCNC(=N)N)C(=O)N[C@@H](CC(=O)O)C(=O)N[C@@H](Cc4c[nH]c5ccccc45)C(=O)N[C@@H](CO)C(=O)N[C@@H]([C@@H](C)O)C(=O)N4CCC[C@H]4C(=O)N4C[C@H](O)C[C@H]4C(=O)N[C@@H](Cc4c[nH]c5ccccc45)C(=O)N[C@H](C(N)=O)CSCCC6=O)nn3)C(=O)N3CCC[C@H]3C(=O)N[C@@H](Cc3ccc(O)cc3)C(=O)N2)C(=O)CCSCCNC1=O | Tumor necrosis factor receptor superfamily member 9/Nectin-4 | reporter gene, agonist, luciferase reporter | CD137 Jurkat reporter with HT-1376 | 6 h, geometric mean | baseline: wells without compound | Emax | 34 fold |
